Published values collected from several papers.
A part holds a random share of what one study measured. Substitutions count along the parent as printed.

Block 1 — target: CCNE1, cyclin fold, Cln2 fusion (human); method: yeast growth competition, sequencing; matrix: yeast; notes: weak parent motif; relative to: not given; direction: higher = stronger binding
Starting sequence: HIRA docking peptide (human); SLSKRKLELEVET
| Change | normalised enrichment score |
| --- | --- |
| SLSARKLELEVET [K4A] | -0.531 |
| ALSKRKLELEVET [S1A] | 0.641 |
| SLSKRKAELEVET [L7A] | -0.555 |
| SLSKAKLELEVET [R5A] | -0.0126 |
| SLSKRALELEVET [K6A] | 0.867 |
| SLSKKKLELEVET [R5K] | 0.173 |
| SLSKRKLELEVAT [E12A] | -0.541 |

Block 2 — method: protein-binding microarray; molecule type: double-stranded DNA, one strand shown; matrix: in vitro; tested at: 940 nM top; notes: 60-bp whole probe; added: salmon DNA 0.4 mg/ml; relative to: random background probes; direction: higher = stronger binding; constant ends, left off below: GCCTAGCAC … GTCTTGATTCGCTTGACGCTGCTG
Target: Interferon regulatory factor 5, full length, phosphomimetic (IRF5, Homo sapiens, UniProt Q13568-2, residues 1-514, S451D/S453D/S456D/S462D)
| Oligonucleotide | fitted relative affinity [z-score] |
| --- | --- |
| TTAGATCCCAGTCTCGATTAGTGCTAG | 3.1 |
| TCAAATATATATTCATAACTGTGCTAG | 0.0468 |
| TTAGGTCTCCTACTGGTTTAGTGCTAG | -0.115 |
| CAGGGTCTCGCTTCATCTCCGTGCTAG | 1.17 |
| GACGGTCTCGTACTGGGGACGTGCTAG | 0.305 |
| GACGGTTCCGGTTTCCGGACGTGCTAG | 3.48 |
| GACGATTTCGGGTTTCAAGACGTGCTA | 0.935 |
| TGCTATACCACTCTTGCTTTGTGCTAG | 0.533 |
| GACGGTTTCGGTCTCCGGACGTGCTAG | 14.5 |
| GGCGGTTTCGGGTATCGGGACGTGCTA | 9.45 |
| TCAGAAATCTCTTTCCTACTGTGCTAG | 0.453 |
| GACGATATCAGACTGAAGACGTGCTAG | -0.783 |
| TCAACTTTGCTCTGTGCGACTGTGCTA | -0.0875 |
| GACGGTTTCGTTCTCGGGACGTGCTAG | 8.3 |
| TTATGACTGGACTATCGGTTAGTGCTA | 0.202 |
| TCATCGTAAGCAAAAATACTGTGCTAG | -0.171 |

Block 3 — method: RNA Bind-n-Seq; molecule type: RNA; matrix: in vitro; tested at: 365 nM; relative to: no-protein control; direction: higher = stronger binding
Target: RNA binding protein fox-1 homolog 2, RRM domain, GST-SBP tag (RBFOX2, Homo sapiens, UniProt O43251-10, residues 100-194)
Notes: natural RNA segment, single round, ends assumed
Target sequence (chain): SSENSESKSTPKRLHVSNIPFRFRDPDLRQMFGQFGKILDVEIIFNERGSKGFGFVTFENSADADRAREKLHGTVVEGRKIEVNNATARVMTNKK
| Oligonucleotide | RBNS enrichment (R) |
| --- | --- |
| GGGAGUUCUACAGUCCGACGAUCCUUGGAGAAUCUGUUUUCAAUCUCCACUGAUUGCCCCCUUGCUGGCCAGCCCAGGGGCCUUUACCAUGUUCUCUCCACAUCCGUAAAUAAACUUCCUUCACUACACUGUAUGGAAUUCUCGGGUGCCAA | 0.334 |
| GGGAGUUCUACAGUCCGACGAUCCCUGGUAUUCUGUGAUCUGCCUCUUGCUGCCAUUCUUUCUCUCCUCUGCUUCUCUGUAUUUUUCUUCUGUUAUCCCUGGGGGUGCUCAGGUUCACUUGAUUGUCUGUAUUUGGAAUUCUCGGGUGCCAA | 1.51 |
| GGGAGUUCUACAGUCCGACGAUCAAACACCAGUGAGGCUCUAUUGAGCCAAGACCAAGUCCUCAAAGCACCUGAACCACUGUGGCCUUCUCAGCCUACAGCAGUGUGGUCUCUUACAUGGCCACAAAGGGACAUGGAAUUCUCGGGUGCCAA | 0.231 |
| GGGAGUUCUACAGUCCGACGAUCGAAAGUCUGAUGCUAAGAUACUGCCUGCACUGGAAUGUUAAACACUAAAUAUAUAACAAGCUGUGUUUUCCUAAGCUGAGAUCUGUUGAAUAAUGUUUACAUUCGUCCCCUGGAAUUCUCGGGUGCCAA | 0.234 |
| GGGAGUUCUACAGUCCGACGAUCUUUGUGAUCCUGAUAUGUCACAUAUAAUAGCUUUGUUACCUGGAGUAUUUGAUUAACCUAAACAGUUUAAGCAUUUUGAAUUAGUUGGAGUUUAAAUGGAUUACAUUUGGUGGAAUUCUCGGGUGCCAA | 0.439 |
| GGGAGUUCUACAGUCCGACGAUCACUUCCUUUCCCAUGAACACUUGCAGUUGCUAAGGGACUUUAUUUUGUAACAUAUUAAUUAUAAAUAUUGUAUUUAUCUUUGAAAUUUUGUACAUUGCUUUCCCUGCCUUUGGAAUUCUCGGGUGCCAA | 1.14 |
| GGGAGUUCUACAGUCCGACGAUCCCAACCACAGGGAGUGCCAGUUAACACUGGAAGGAUUAAGGCAAGGUCCCUUCUCUUGAGACUCCCCUCUGAGAUCUGAAAAAUGAAGUGGCUUAGGAACAUCAGCAGUGUGGAAUUCUCGGGUGCCAA | 0.447 |
| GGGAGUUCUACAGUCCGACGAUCGGCUCUGGUUGGCUGAUCAAGGGCAUGGACCAGGGGCUGCUGGGCAUGUGUCCUGGAGAGAGAAGGAAGAUUAUCAUCCCUCCAUUCCUGGCCUAUGGCGAGAAAGGCUAUGGAAUUCUCGGGUGCCAA | 1.3 |
| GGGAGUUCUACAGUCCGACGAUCACCAGAGGGAGAAGCCCGAUGCCCCAUCCCGGCUUUCCCGUAACGCACAGGACACGUGUGCAAUUCAUAGGAACGGCCCAGAUCGCCCUCAUGAGUGCCACCUGGUACAGUGGAAUUCUCGGGUGCCAA | 0.443 |
| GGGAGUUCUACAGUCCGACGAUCAUCAAACUAUUCCGUGCCGUGGAUGUUUUCAUUGCCAACGAGGGUGUAAUGAUUUGCUUCUGCACCUUGGUCUAGUGCUGGUUUGUGGUGUUUUUGUUUGUAAAUUAGCCUGGAAUUCUCGGGUGCCAA | 0.737 |
| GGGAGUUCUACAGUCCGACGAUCUAGGUCUGCAUUGGAAAUGACUAUUAAUUUGUAAAGAAGUAAGUUUUAUUAAACACUGUCUAGAAAAAGAAAGUGAAGCUGAGAACUCUUCCUUUAUUGUGCAUUUAUAUUGGAAUUCUCGGGUGCCAA | 1.81 |
| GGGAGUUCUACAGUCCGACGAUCGUGCUAUUGCAGACAUGGCUGCAGUACUGUACCUUAUCAUUCUGAUGAAACUGAUUUGGAGCACCCUUUUCUUUAUCGCUACAUUUAUUUAGGGGACAAACUCCAUCCAGUGGAAUUCUCGGGUGCCAA | 0.585 |

Block 4 — method: DHFR PCA, deep sequencing; matrix: yeast; added: (+)-ABA 0.0091 µM; relative to: wild-type fitted maximum; direction: higher = stronger binding
Target: ABI1, truncated, D143A, DHFR fusion (Arabidopsis thaliana)
Notes: methotrexate growth selection, single substitutions
Starting sequence: PYL1, truncated, DHFR fusion (Arabidopsis thaliana); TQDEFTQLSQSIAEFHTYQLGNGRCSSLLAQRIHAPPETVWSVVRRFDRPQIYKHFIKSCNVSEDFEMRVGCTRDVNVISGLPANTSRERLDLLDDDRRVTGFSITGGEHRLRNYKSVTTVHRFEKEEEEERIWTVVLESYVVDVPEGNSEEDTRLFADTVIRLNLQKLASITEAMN; partner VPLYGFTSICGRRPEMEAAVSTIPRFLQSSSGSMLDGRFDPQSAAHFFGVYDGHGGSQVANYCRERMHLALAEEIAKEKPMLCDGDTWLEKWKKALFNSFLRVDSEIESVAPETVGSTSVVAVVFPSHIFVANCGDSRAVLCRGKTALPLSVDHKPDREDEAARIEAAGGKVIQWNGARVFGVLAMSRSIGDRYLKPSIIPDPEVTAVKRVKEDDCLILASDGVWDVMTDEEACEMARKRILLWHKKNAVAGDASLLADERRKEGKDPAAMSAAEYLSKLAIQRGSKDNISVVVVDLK
| Change | relative binding score [%] |
| --- | --- |
| Q51F | -6.25 |
| I57C | 0.236 |
| R88P | -4.69 |
| D75P | -3.71 |
| D48G | 2.58 |
| D48M | -0.677 |
| V137P | -0.000385 |
| D144I | -5.75 |
| I57G | -2.16 |
| T86A | 6.86 |
| L166Q | -2.68 |
| A175I | -1.37 |
| G107D | 36.6 |
| Y53M | -1.67 |
| S59I | 13.5 |
| F157V | 5.28 |
| V44C | -1.03 |

Excerpt of the above (block 3):
| Oligonucleotide | RBNS enrichment (R) |
| --- | --- |
| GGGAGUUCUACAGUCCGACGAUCGUGCUAUUGCAGACAUGGCUGCAGUACUGUACCUUAUCAUUCUGAUGAAACUGAUUUGGAGCACCCUUUUCUUUAUCGCUACAUUUAUUUAGGGGACAAACUCCAUCCAGUGGAAUUCUCGGGUGCCAA | 0.585 |
| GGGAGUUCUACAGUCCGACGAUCUAGGUCUGCAUUGGAAAUGACUAUUAAUUUGUAAAGAAGUAAGUUUUAUUAAACACUGUCUAGAAAAAGAAAGUGAAGCUGAGAACUCUUCCUUUAUUGUGCAUUUAUAUUGGAAUUCUCGGGUGCCAA | 1.81 |
| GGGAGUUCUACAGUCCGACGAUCAUCAAACUAUUCCGUGCCGUGGAUGUUUUCAUUGCCAACGAGGGUGUAAUGAUUUGCUUCUGCACCUUGGUCUAGUGCUGGUUUGUGGUGUUUUUGUUUGUAAAUUAGCCUGGAAUUCUCGGGUGCCAA | 0.737 |
| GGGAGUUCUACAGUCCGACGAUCACUUCCUUUCCCAUGAACACUUGCAGUUGCUAAGGGACUUUAUUUUGUAACAUAUUAAUUAUAAAUAUUGUAUUUAUCUUUGAAAUUUUGUACAUUGCUUUCCCUGCCUUUGGAAUUCUCGGGUGCCAA | 1.14 |
| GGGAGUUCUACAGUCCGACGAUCCCAACCACAGGGAGUGCCAGUUAACACUGGAAGGAUUAAGGCAAGGUCCCUUCUCUUGAGACUCCCCUCUGAGAUCUGAAAAAUGAAGUGGCUUAGGAACAUCAGCAGUGUGGAAUUCUCGGGUGCCAA | 0.447 |
| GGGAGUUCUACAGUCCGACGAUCUUUGUGAUCCUGAUAUGUCACAUAUAAUAGCUUUGUUACCUGGAGUAUUUGAUUAACCUAAACAGUUUAAGCAUUUUGAAUUAGUUGGAGUUUAAAUGGAUUACAUUUGGUGGAAUUCUCGGGUGCCAA | 0.439 |
